{"data": "Published values from different studies", "note": "Each numbered part is a random draw from the data of one study; scales do not carry over between parts. Positions count from the first letter of the parent shown.", "UniProt O15294, sequence (whole entry, looked up)": "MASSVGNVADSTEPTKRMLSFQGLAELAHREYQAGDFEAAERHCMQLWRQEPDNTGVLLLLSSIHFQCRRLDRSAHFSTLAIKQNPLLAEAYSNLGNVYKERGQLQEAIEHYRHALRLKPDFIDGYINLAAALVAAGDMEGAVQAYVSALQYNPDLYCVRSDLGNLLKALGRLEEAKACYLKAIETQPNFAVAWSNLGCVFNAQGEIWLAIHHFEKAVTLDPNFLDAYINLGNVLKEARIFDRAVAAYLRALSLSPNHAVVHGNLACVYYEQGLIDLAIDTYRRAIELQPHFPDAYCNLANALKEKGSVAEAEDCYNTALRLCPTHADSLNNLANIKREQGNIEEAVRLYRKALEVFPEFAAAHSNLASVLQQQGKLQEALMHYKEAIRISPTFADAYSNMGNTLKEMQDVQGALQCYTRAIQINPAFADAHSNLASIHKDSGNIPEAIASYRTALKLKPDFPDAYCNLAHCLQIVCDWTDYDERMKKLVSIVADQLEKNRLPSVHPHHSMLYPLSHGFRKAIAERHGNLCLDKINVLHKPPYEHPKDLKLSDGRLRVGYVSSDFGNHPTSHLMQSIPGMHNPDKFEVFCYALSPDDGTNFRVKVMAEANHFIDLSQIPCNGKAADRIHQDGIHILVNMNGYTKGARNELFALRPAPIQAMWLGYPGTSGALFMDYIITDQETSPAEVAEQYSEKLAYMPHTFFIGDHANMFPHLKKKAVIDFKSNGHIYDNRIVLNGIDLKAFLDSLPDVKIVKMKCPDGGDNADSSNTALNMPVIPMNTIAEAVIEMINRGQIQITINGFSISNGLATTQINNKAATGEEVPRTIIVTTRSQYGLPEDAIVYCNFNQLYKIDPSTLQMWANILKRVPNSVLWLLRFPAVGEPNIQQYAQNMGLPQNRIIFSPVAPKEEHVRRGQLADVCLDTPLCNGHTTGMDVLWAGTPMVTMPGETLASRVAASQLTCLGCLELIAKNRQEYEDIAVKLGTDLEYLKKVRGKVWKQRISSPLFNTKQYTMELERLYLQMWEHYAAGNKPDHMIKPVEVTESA", "UniProt Q7Z5W3, sequence (1-42, looked up)": "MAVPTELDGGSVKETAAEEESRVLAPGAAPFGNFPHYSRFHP"}
{"data": "Set 1", "target": "Sal-like protein 4, full length isoform B (SALL4, Homo sapiens, UniProt Q9UJQ4-2, residues 1-616)", "technique": "universal PBM", "molecule type": "double-stranded DNA, one strand shown", "medium": "in vitro", "concentration": "not given", "setting": "8-mer, flanks averaged, mean of replicates", "reading": "higher = stronger binding", "Construct (chain)": "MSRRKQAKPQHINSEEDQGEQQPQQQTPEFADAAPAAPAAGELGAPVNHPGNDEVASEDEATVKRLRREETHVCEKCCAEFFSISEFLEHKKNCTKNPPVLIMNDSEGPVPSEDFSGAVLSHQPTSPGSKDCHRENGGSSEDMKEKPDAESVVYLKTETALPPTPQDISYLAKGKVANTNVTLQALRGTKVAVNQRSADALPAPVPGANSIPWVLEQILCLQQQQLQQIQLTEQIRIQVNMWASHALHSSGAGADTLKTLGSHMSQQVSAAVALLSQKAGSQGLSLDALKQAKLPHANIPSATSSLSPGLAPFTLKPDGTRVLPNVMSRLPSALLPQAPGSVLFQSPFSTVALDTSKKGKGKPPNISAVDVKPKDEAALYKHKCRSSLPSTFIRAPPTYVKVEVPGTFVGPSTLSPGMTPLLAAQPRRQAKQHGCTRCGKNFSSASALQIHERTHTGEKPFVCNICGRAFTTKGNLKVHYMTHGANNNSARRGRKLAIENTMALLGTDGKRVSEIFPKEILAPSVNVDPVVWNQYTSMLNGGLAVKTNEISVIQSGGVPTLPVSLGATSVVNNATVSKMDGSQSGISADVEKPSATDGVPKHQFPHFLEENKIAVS"}
{"Oligonucleotide": "AACTCTGG", "E-score": 0.0218}
{"Oligonucleotide": "GTTTTTAA", "E-score": 0.223}
{"Oligonucleotide": "AGGAGTGA", "E-score": -0.0589}
{"Oligonucleotide": "CTAGATTC", "E-score": 0.00472}
{"Oligonucleotide": "AATTATGG", "E-score": 0.391}
{"Oligonucleotide": "AACTTTCT", "E-score": 0.177}
{"Oligonucleotide": "TCGACGCA", "E-score": -0.161}
{"Oligonucleotide": "CTCTCGAC", "E-score": -0.231}
{"data": "Set 2", "target": "CREB5, bZIP domain (human)", "technique": "DHFR protein complementation", "medium": "yeast", "setting": "single substitutions, most at no-binding floor", "baseline": "wild-type JUN-FOS pair", "reading": "higher = stronger binding", "parent": "JUN, bZIP domain (human); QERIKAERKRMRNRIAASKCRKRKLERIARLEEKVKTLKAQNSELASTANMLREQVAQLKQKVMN; partner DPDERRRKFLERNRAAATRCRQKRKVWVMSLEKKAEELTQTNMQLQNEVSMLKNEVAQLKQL"}
{"Change": "L31W", "binding fitness [natural log]": -0.891}
{"Change": "Q55I", "binding fitness [natural log]": -0.651}
{"Change": "S43G", "binding fitness [natural log]": -0.327}
{"Change": "L59W", "binding fitness [natural log]": -1.04}
{"Change": "L59T", "binding fitness [natural log]": -1.14}
{"Change": "L31T", "binding fitness [natural log]": -1.11}
{"Change": "T37N", "binding fitness [natural log]": -0.177}
{"Change": "K36P", "binding fitness [natural log]": -1.35}
{"data": "Further values, each from its own experiment"}
{"Substance": "QQFSKLFPPKYTIDF", "target": "OGT (Homo sapiens, UniProt O15294)", "assay": "binding, phage display NGS", "test system": "peptide", "conditions": "concentration not given", "scale": "baseline: input library", "quantity": "enrichment fold change", "value": 2.95}
{"Substance": "AAAAAAAA (biotin)", "target": "RNA 5'-monophosphate methyltransferase, N-terminal fragment (BCDIN3D, Homo sapiens, UniProt Q7Z5W3, residues 1-42)", "assay": "protein domain microarray", "test system": "RNA, in vitro", "conditions": "not given, poly(A) 8-mer RNA, whole probe, immobilized GST-fusion domains, most near background", "scale": "baseline: GST loading signal, higher = stronger binding", "quantity": "signal ratio", "value": 0.0435}
{"note": "Some of these lines once more (set 2):"}
{"Change": "L59T", "binding fitness [natural log]": -1.14}
{"Change": "L31T", "binding fitness [natural log]": -1.11}
{"Change": "T37N", "binding fitness [natural log]": -0.177}
